Assay results collected from several papers.
Compare with care: the assays were run in different laboratories. Numbers after ± are the reported error.
Technique: steady-state kinetics
B1: msrA U16C (Clostridium oremlandii, UniProt A8MI53); chain MDTNQKLSIAVFALGCFWGPDAQFGSIKGVVSTRVGYAGGTTNNPSYYNLGDHSESIEIQYDANVITYGELLNIFWNLHNPVYETTNRQYMSRIFYLDDGQKSEALEMKRQIEAANGEKIYTEIVPLENFYLAEGYHQKYYLQNTTKLYQTLKAIYGGFGNLVRSTLAARMNGYIAGNLSIASLKEEMDLVELPEDQYEKVLSIVEEIK
B2: Pck1 A467G (Rattus norvegicus, UniProt P07379); chain MPPQLHNGLDFSAKVIQGSLDSLPQEVRKFVEGNAQLCQPEYIHICDGSEEEYGRLLAHMQEEGVIRKLKKYDNCWLALTDPRDVARIESKTVIITQEQRDTVPIPKSGQSQLGRWMSEEDFEKAFNARFPGCMKGRTMYVIPFSMGPLGSPLAKIGIELTDSPYVVASMRIMTRMGTSVLEALGDGEFIKCLHSVGCPLPLKKPLVNNWACNPELTLIAHLPDRREIISFGSGYGGNSLLGKKCFALRIASRLAKEEGWLAEHMLILGITNPEGKKKYLAAAFPSACGKTNLAMMNPTLPGWKVECVGDDIAWMKFDAQGNLRAINPENGFFGVAPGTSVKTNPNAIKTIQKNTIFTNVAETSDGGVYWEGIDEPLAPGVTITSWKNKEWRPQDEEPCAHPNSRFCTPASQCPIIDPAWESPEGVPIEGIIFGGRRPAGVPLVYEALSWQHGVFVGAAMRSEATAGAEHKGKVIMHDPFAMRPFFGYNFGKYLAHWLSMAHRPAAKLPKIFHVNWFRKDKNGKFLWPGFGENSRVLEWMFGRIEGEDSAKLTPIGYVPKEDALNLKGLGDVNVEELFGISKEFWEKEVEEIDKYLEDQVNADLPYEIERELRALKQRISQM
B3: WlbA (Thermus thermophilus, UniProt Q72KX8); chain MTRFALTGLAGYIAPRHLKAIKEVGGVLVASLDPATNVGLVDSFFPEAEFFTEPEAFEAYLEDLRDRGEGVDYLSIASPNHLHYPQIRMALRLGANALSEKPLVLWPEEIARLKELEARTGRRVYTVLQLRVHPSLLALKERLGQEKGAKDVVLTYVTGRGKWYGKSWKVDEAKSGGLATNIGIHFFDLLAWLFGRALHVEVHARTPTVNAGYLELEGARVRWFLSIDPSFVPEPLRRQGKRTYRSIAVDGEEVEFSEGFTDLHTEVYRKTLAGEGFGLDEAAEAIRVAALLRTLPLSQPSPENRHPFLG
B4: PRODH2 157-515 (Homo sapiens, UniProt Q9UF12); chain YGQFVAGETAEEVKGCVQQLRTLSLRPLLAVPTEEEPDSAAKSGEAWYEGNLGAMLRCVDLSRGLLEPPSLAEASLMQLKVTALTSTRLCKELASWVRRPGASLELSPERLAEAMDSGQNLQVSCLNAEQNQHLRASLSRLHRVAQYARAQHVRLLVDAEYTSLNPALSLLVAALAVRWNSPGEGGPWVWNTYQACLKDTFERLGRDAEAAHRAGLAFGVKLVRGAYLDKERAVAQLHGMEDPTQPDYEATSQSYSRCLELMLTHVARHGPMCHLMVASHNEESVRQATKRMWELGIPLDGTVCFGQLLGMCDHVSLALGQAGYVVYKSIPYGSLEEVIPYLIRRAQENRSVLQGARRE
B5: Paox H64Q (Mus musculus, UniProt Q8C0L6); chain MAFPGPRVLVVGSGIAGLGAAQKLCSHRAAPHLRVLEATASAGGRIRSERCFGGVVELGAHWIQGPSQDNPVFQLAAEFGLLGEKELSEENQLVDTGGHVALPSMIWSSSGTSVSLELMTEMARLFYGLIERTREFLNESETPMASVGEFLKKEISQQVASWTEDDEDTRKRKLAILNTFFNIECCVSGTHSMDLVALAPFGEYTVLPGLDCILAGGYQGLTDRILASLPKDTVAFDKPVKTIHWNGSFQEAAFPGETFPVLVECEDGARLPAHHVIVTVPLGFLKEHQDTFFEPPLPAKKAEAIKKLGFGTNNKIFLEFEEPFWEPDCQFIQVVWEDTSPLQDTALSLQDTWFKKLIGFLVQPSFESSHVLCGFIAGLESEFMETLSDEEVLLSLTQVLRRVTGNPQLPAAKSVRRSQWHSAPYTRGSYSYVAVGSTGDDLDLMAQPLPEDGTGTQLQVLFAGEATHRTFYSTTHGALLSGWREADRLVSLWDSQVEQSRPRL
B6: BaiA2 (Clostridium scindens, UniProt P19337); chain MNLVQDKVTIITGGTRGIGFAAAKIFIDNGAKVSIFGETQEEVDTALAQLKELYPEEEVLGFAPDLTSRDAVMAAVGQVAQKYGRLDVMINNAGITSNNVFSRVSEEEFKHIMDINVTGVFNGAWCAYQCMKDAKKGVIINTASVTGIFGSLSGVGYPASKASVIGLTHGLGREIIRKNIRVVGVAPGVVNTDMTNGNPPEIMEGYLKALPMKRMLEPEEIANVYLFLASDLASGITATTVSVDGAYRP
B7: ybiA (Escherichia coli, UniProt P30176); chain MPVRAQRIQHVMQDTIINFYSTSDDYGDFSNFAAWPIKVDGKTWPTSEHYFQAQKFLDEKYREEIRRVSSPMVAARMGRDRSKPLRKNWESVKEQVMRKALRAKFEQHAELRALLLATAPAKLVEHTENDAYWGDGGHGKGKNRLGYLLMELREQLAIEK
B8: Rtr1 residues 1-178 (Saccharomyces cerevisiae, UniProt P40084); chain MATIEDIKETALIPFQKHRQLSMHEAEVITLEIIGLLCDSECKDEKTLKYLGRFLTPDMYQDLVDERNLNKRCGYPLCGKSPERIRDPFSMNDTTKKFLLENNPYAYLSHYCSKFHFRCSQFYQVQLSDEALFARTGVHLFEDPEQDKHDIDFKVTLFEELLREKASEEDIKSLISGL
B9: UGT84B1 (Arabidopsis thaliana, UniProt O22182); chain MGSSEGQETHVLMVTLPFQGHINPMLKLAKHLSLSSKNLHINLATIESARDLLSTVEKPRYPVDLVFFSDGLPKEDPKAPETLLKSLNKVGAMNLSKIIEEKRYSCIISSPFTPWVPAVAASHNISCAILWIQACGAYSVYYRYYMKTNSFPDLEDLNQTVELPALPLLEVRDLPSFMLPSGGAHFYNLMAEFADCLRYVKWVLVNSFYELESEIIESMADLKPVIPIGPLVSPFLLGDGEEETLDGKNLDFCKSDDCCMEWLDKQARSSVVYISFGSMLETLENQVETIAKALKNRGLPFLWVIRPKEKAQNVAVLQEMVKEGQGVVLEWSPQEKILSHEAISCFVTHCGWNSTMETVVAGVPVVAYPSWTDQPIDARLLVDVFGIGVRMRNDSVDGELKVEEVERCIEAVTEGPAAVDIRRRAAELKRVARLALAPGGSSTRNLDLFISDITIA
B10: Tcur_2987 W263F (Thermomonospora curvata, UniProt D1A807); chain ACSEERAAGARPSATQTTGTATEPFHGPHQAGIATPPQAHAVFLGLDLRKGTGRKELGRLMRLLTDDARRLTQGRPALADPEPDLAPLPSRLTFTFGFGPGLFKAAGLEKQRPEGLRPLPPFKVDRLEDRWSGGDLLVQICCDDPITLAHALRMTVKDARAFTRVRWVQRGFRRSPGVQSSGATQRNLMGQLDGTVNPVPGTADFDQAVWVQDGPEWLRGGTTLVLRRIRMELEKFDEADPAGKEFAVGRRLTSGAPLTGRHEHDEPDFDAVDSAGFPVIAENAHIRLAHVDSPRLRMLRRPYNYDEGLTADGRSDAGLLFAAYQADIDRQFIPVQRRLDEGGDLLNLWTTPIGSAVFAIPPGCDENGWIGQGLLG
B11: enzyme A178R/D177A/P184R (Levilactobacillus brevis, UniProt Q03Q85); chain MKVTVVGCTHAGTFAIKQILAEHPDAEVTVYERNDVISFLSCGIALYLGGKVADPQGLFYSSPEELQKLGANVQMNHNVLAIDPDQKTVTVEDLTNHAQTTESYDKLVMTSGSWPIVPKIPGIDSDRVKLCKNWAHAQALIEDAKEAKRITVIGAGYIGAELAEAYSTTGHDVTLIARMARVMRKYFDADFTDVIEQDYRDHGVQLALGETVESFTDSATGLTIKTDKNSYETDLAILCIGFRPNTDLLKGKVDMAPNGAIITDDYMRSSNPDIFAAGDSAAVHYNPTHQNAYIPLATNAVRQGILVGKNLVKPTVKYMGTQSSSGLALYDRTIVSTGLTLAAAKQQGLNAEQVIVEDNYRPEFMPSTEPVLMSLVFDPDTHRILGGALMSKYDVSQSANTLSVCIQNENTIDDLAMVDMLFQPNFDRPFNYLNILAQAAQAKVAQSVNA
Chain of UniProt P45370 (whole entry, looked up): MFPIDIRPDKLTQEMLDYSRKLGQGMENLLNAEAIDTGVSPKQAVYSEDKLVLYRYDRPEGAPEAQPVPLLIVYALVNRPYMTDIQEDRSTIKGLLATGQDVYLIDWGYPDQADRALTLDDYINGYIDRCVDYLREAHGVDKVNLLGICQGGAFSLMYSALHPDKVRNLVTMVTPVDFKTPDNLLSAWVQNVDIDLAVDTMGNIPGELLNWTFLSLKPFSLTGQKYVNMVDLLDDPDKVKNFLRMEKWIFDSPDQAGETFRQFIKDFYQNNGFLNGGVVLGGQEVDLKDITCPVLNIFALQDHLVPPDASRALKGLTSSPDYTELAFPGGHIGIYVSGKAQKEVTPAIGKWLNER
Chain of UniProt P14780 (whole entry, looked up): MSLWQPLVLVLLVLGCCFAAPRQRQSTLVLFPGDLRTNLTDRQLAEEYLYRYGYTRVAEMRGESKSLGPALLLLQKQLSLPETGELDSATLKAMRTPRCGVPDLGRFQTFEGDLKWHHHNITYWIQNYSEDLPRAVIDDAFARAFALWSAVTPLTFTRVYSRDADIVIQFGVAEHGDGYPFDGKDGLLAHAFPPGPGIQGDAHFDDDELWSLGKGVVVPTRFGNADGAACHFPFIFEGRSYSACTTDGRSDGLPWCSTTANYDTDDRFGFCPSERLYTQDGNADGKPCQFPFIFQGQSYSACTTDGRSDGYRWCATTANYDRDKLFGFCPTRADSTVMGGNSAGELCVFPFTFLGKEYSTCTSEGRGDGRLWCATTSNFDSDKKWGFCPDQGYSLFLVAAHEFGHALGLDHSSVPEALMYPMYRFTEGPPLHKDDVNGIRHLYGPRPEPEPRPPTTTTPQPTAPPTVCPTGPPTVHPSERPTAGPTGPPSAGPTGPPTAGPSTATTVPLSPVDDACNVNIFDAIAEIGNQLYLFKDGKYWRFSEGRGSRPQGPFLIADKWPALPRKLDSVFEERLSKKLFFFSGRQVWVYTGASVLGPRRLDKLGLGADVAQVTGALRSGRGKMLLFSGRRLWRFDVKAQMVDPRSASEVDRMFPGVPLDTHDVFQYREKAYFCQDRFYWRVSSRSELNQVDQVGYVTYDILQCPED
Chain of UniProt Q06520 (whole entry, looked up): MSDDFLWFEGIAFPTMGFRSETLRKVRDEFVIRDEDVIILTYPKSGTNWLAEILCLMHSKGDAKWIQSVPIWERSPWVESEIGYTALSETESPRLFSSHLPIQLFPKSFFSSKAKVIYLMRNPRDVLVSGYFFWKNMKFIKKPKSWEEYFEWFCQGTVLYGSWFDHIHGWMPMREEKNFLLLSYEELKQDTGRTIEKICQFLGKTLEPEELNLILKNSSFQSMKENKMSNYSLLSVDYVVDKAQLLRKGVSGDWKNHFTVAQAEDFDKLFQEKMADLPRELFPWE
Chain of UniProt Q29437 (whole entry, looked up): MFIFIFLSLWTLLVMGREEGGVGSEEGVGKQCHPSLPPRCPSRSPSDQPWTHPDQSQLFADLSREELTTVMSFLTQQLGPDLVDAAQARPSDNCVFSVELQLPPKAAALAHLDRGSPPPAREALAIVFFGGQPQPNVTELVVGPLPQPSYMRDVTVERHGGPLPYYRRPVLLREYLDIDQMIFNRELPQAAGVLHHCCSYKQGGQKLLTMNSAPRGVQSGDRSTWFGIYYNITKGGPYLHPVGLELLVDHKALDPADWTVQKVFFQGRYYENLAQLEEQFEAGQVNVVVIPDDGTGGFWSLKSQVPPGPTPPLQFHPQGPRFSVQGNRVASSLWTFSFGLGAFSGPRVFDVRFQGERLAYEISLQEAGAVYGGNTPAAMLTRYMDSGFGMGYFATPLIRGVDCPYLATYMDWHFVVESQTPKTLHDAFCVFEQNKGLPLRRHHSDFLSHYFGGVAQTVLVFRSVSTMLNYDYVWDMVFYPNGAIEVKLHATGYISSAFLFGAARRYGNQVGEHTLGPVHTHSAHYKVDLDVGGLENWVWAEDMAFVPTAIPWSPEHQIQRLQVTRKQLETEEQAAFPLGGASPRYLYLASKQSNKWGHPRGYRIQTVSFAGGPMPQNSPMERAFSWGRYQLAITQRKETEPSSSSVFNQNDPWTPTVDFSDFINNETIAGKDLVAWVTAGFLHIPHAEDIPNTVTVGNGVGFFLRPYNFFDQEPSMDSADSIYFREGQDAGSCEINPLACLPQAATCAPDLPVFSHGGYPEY

Molecule | substrate | pH | temperature | setting | with | kcat/Km [M⁻¹ s⁻¹]
protein (Allochromatium vinosum, UniProt P45370) | C=CC[C@@H](O)CC(=O)SCCNC(=O)CCNC(=O)[C@H](O)C(C)(C)COP(=O)(O)OP(=O)(O)OC[C@H]1O[C@@H](n2cnc3c(N)ncnc32)[C@H](O)[C@@H]1OP(=O)(O)O | pH 7.8 | 30 °C | – | – | 254000
protein (Cecembia lonarensis, UniProt K1KZY4) | C[C@@H]1O[C@@H](Oc2ccc([N+](=O)[O-])cc2)[C@@H](O)[C@H](O)[C@H]1O | pH 5.5 | 35 °C | – | – | 7350 ± 470
B1 (msrA U16C) | CN(C)c1ccc(N=Nc2ccc(S(=O)(=O)N[C@@H](CC[S@+](C)[O-])C(=O)O)cc2)cc1 | pH 7.5 | 37 °C | 50 mM NaCl, Km above tested range | 20 mM DTT reductant | 950
B2 (Pck1 A467G) | Nc1nc2c(ncn2[C@@H]2O[C@H](COP(=O)(O)OP(=O)(O)O)[C@@H](O)[C@H]2O)c(=O)[nH]1 | pH 7.5 | 25 °C | – | – | 14000
B3 (WlbA) | O=C(O)CCC(=O)C(=O)O | pH 8.5 | 25 °C | – | enzyme-bound NAD(H) | 100000
B4 (PRODH2 157-515) | O=C(O)[C@@H]1C[C@@H](O)CN1 | pH 7.5 | 25 °C | – | CoQ1 200 µM | 0.93
MMP9 (Homo sapiens, UniProt P14780) | CSCC[C@H](NC(=O)CNC(=O)[C@H](CC(C)C)NC(=O)[C@@H]1CCCN1C(=O)CNC(C)=O)C(=O)N[C@@H](Cc1c[nH]cn1)C(=O)NCC(=O)N[C@@H](CCCCN)C(N)=O | – | – | – | – | 230000
B5 (Paox H64Q) | CC(=O)NCCCNCCCCNCCCN | pH 10 | 30 °C | – | – | 84000 ± 9000
Plasma amine oxidase (Bos taurus, UniProt Q29437) | COc1ccc2cc(CN)ccc2c1 | pH 7.2 | 30 °C | – | – | 1510
B6 (BaiA2) | C[C@H](CCC(=O)SCCNC(=O)CCNC(=O)[C@H](O)C(C)(C)COP(=O)(O)OP(=O)(O)OC[C@H]1O[C@@H](n2cnc3c(N)ncnc32)[C@H](O)[C@@H]1OP(=O)(O)O)[C@H]1CC[C@H]2[C@@H]3[C@H](O)C[C@@H]4CC(=O)CC[C@]4(C)[C@H]3C[C@H](O)[C@]12C | pH 8.7 | 37 °C | – | NADH | 76800
B7 (ybiA) | Nc1nc(N[C@@H]2O[C@H](COP(=O)(O)O)[C@@H](O)[C@H]2O)c(N)c(=O)[nH]1 | pH 8 | 22 °C | substrate not purified | – | 1
B8 (Rtr1 residues 1-178) | Cc1cc(=O)oc2c(F)c(OP(=O)(O)O)c(F)cc12 | pH 6 | – | NaCl 150 mM, no metal added | – | 6.67e+06
B9 (UGT84B1) | O=C(O)Cc1c[nH]c2ccccc12 | pH 7.5 | 30 °C | – | UDP-glucose 4 mM, MgSO4 2.5 mM | 70 ± 10
B10 (Tcur_2987 W263F) | Nc1c(S(=O)(=O)O)cc(Nc2cccc(S(=O)(=O)CCOS(=O)(=O)O)c2)c2c1C(=O)c1ccccc1C2=O | pH 3 | – | sigmoidal kinetics | H2O2 1 mM | 1.5e+06
B11 (enzyme A178R/D177A/P184R) | NC(=O)C1=CN([C@@H]2O[C@H](COP(=O)(O)OP(=O)(O)OC[C@H]3O[C@@H](n4cnc5c(N)ncnc54)[C@H](OP(=O)(O)O)[C@@H]3O)[C@@H](O)[C@H]2O)C=CC1 | pH 7.5 | 37 °C | per site | – | 2.9e+06 ± 1.4e+06
SULT2A1 (Homo sapiens, UniProt Q06520) | C[C@]12CC[C@H](O)CC1=CC[C@@H]1[C@@H]2CC[C@]2(C)C(=O)CC[C@@H]12 | pH 7.4 | 25 °C | – | – | 540000

Repeated from above:
Molecule | substrate | pH | temperature | setting | with | kcat/Km [M⁻¹ s⁻¹]
B3 (WlbA) | O=C(O)CCC(=O)C(=O)O | pH 8.5 | 25 °C | – | enzyme-bound NAD(H) | 100000
B4 (PRODH2 157-515) | O=C(O)[C@@H]1C[C@@H](O)CN1 | pH 7.5 | 25 °C | – | CoQ1 200 µM | 0.93
